Results gathered from unrelated publications.
A part holds a random share of what one study measured.

Set 1
Target: Interferon regulatory factor 7, full length, phosphomimetic (IRF7, Homo sapiens, UniProt Q92985, residues 1-503, S101K/S471D/S472D/S475D/S476D/S477D/S483D/S484D/S487D)
Technique: protein-binding microarray
Molecule type: double-stranded DNA, one strand shown
Sample: in vitro
Tested at: 250 nM
Notes: 60-bp whole probe
With: salmon DNA 0.4 mg/ml
Baseline: random background probes
Direction: higher = stronger binding
All sequences stand within: GCCTAGCAC … GTGCTAGGTCTTGATTCGCTTGACGCTGCTG
Target sequence (chain): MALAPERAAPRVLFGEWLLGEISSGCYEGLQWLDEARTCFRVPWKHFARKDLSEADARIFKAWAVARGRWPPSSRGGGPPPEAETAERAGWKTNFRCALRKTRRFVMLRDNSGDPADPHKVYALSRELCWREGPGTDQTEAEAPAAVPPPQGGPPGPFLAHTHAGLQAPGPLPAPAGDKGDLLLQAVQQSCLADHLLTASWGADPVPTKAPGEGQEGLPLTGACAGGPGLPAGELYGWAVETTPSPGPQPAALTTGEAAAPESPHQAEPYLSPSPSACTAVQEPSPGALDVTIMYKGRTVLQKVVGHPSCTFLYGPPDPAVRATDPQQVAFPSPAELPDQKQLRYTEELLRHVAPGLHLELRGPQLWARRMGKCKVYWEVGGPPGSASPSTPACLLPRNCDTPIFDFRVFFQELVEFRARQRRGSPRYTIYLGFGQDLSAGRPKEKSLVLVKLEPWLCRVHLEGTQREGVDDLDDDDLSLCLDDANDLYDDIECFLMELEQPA
Sequence | log fluorescence [z-score]
CGGATGATCTCTCTGGGCAA | -0.345
GACGGTATCGGTTTCCGGAC | 5.9
TCAACACTAATTTTCAAACT | 0.195
GACGTACTGCTACTGCTGAC | -0.338
AACGGACTGCTACTGCTGAC | -0.689
TTGGATCTCAGTCTCGATTA | 1.35
TTATGACTGGGTATCGGTTA | 0.478

Set 2
Target: Max dimerization protein 1, bHLH-zipper, MAX partner unstated (MXD1, Homo sapiens, UniProt Q05195, residues 56-136)
Technique: protein-binding microarray
Molecule type: double-stranded DNA, one strand shown
Sample: in vitro
Tested at: not given
Notes: k-mer, scored over probes, only values ≥0.25
Direction: higher = stronger binding
Residues (chain): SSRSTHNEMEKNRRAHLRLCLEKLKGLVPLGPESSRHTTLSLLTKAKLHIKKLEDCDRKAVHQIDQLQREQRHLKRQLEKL
Sequence | E-score
CCTCGTGC | 0.441
CATGCGAA | 0.279
ACATATGT | 0.305
CACGTTAG | 0.256
CATGGCAA | 0.321
CATGCTAC | 0.365

Set 3
Target: Sal-like protein 4, full length isoform B (SALL4, Homo sapiens, UniProt Q9UJQ4-2, residues 1-616)
Technique: universal PBM
Molecule type: double-stranded DNA, one strand shown
Sample: in vitro
Tested at: not given
Notes: 8-mer, flanks averaged, mean of replicates
Direction: higher = stronger binding
Construct (chain): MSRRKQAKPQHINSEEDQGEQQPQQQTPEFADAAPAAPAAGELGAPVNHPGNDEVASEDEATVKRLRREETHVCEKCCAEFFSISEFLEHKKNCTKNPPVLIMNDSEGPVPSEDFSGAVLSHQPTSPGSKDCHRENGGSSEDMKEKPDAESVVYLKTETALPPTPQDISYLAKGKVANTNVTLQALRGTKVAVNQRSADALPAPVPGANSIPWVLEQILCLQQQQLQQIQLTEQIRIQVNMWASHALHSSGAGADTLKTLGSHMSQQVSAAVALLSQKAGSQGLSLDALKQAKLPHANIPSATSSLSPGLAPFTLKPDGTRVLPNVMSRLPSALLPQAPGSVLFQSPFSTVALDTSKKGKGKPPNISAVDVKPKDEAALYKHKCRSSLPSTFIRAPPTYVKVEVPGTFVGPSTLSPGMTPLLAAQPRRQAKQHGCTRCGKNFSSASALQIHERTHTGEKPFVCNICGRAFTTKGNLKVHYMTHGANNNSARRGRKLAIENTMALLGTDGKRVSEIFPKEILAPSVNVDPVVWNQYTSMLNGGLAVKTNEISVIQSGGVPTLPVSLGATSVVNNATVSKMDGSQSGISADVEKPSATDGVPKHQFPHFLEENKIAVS
Sequence | E-score
CGGGTGAA | -0.17
CGCACTTA | 0.0213
CTTCATTA | 0.307
CGGTTTGA | -0.127
ATCGATCC | -0.0993

Single results of other studies
Substance | target | assay | system | setting | scale | quantity | result
PhoQ, residues 284 288 289 292 302 303 SNSSNI | PhoP, residues 12 14 15 18 19 HLGGL (Escherichia coli, UniProt P23836) | Sort-seq, item: YFP reporter | E. coli | PhoQ-PhoP variant library, with: 10 µM Mg2+ | baseline: high Mg2+ state, higher = stronger signaling | fold induction | 1.39

Some of these lines once more (set 2):
Sequence | E-score
CATGCGAA | 0.279
CACGTTAG | 0.256
